Measurements from different studies.
Numbered parts are unrelated; each lists some results of a single study. Several values in a cell are separate wells, animals, samples, runs or records.

Study 1
Structure (SMILES): CCN1/C(=C/C=C2\CCCC(/C=C/C3=[N+](CC)c4ccccc4C3(C)C)=C2NCCCCCCCCN2CCC(Nc3nc4ccccc4n3Cc3ccc(F)cc3)CC2)C(C)(C)c2ccccc21
Cell line: U-87 MG
Concentration: concentration not given
Reference: DMSO
It gave -2.33 for “log2 fold change” (measured: CENPI mRNA).
measured: PPP1R3C mRNA — “log2 fold change”: 2.26.
For measured: SLCO4A1 mRNA: “log2 fold change” read 1.64.
It gave 1.53 for “log2 fold change” (measured: IER3 mRNA).
It gave 1.32 for “log2 fold change” (measured: SLIT3 mRNA).
The “log2 fold change” was 0.946 (measured: PINX1 mRNA).
The “log2 fold change” was 0.935 (measured: POR mRNA).
It gave -1.08 for “log2 fold change” (measured: KCTD3 mRNA).
The “log2 fold change” was -1.41 (measured: HAS3 mRNA).
It gave 2.86 for “log2 fold change” (measured: SLC44A5 mRNA).
It gave 1.08 for “log2 fold change” (measured: UPP1 mRNA).
For measured: POP1 mRNA: “log2 fold change” read -0.897.
It gave -1.39 for “log2 fold change” (measured: IGDCC4 mRNA).
For measured: LARP6 mRNA: “log2 fold change” read 1.54.
The “log2 fold change” was -2.73 (measured: ILDR2 mRNA).
It gave 1.76 for “log2 fold change” (measured: BEX5 mRNA).

Study 2
Target: Fibroblast growth factor receptor 1 (FGFR1, Homo sapiens, UniProt P11362)
UniProt P11362, sequence (whole entry, looked up): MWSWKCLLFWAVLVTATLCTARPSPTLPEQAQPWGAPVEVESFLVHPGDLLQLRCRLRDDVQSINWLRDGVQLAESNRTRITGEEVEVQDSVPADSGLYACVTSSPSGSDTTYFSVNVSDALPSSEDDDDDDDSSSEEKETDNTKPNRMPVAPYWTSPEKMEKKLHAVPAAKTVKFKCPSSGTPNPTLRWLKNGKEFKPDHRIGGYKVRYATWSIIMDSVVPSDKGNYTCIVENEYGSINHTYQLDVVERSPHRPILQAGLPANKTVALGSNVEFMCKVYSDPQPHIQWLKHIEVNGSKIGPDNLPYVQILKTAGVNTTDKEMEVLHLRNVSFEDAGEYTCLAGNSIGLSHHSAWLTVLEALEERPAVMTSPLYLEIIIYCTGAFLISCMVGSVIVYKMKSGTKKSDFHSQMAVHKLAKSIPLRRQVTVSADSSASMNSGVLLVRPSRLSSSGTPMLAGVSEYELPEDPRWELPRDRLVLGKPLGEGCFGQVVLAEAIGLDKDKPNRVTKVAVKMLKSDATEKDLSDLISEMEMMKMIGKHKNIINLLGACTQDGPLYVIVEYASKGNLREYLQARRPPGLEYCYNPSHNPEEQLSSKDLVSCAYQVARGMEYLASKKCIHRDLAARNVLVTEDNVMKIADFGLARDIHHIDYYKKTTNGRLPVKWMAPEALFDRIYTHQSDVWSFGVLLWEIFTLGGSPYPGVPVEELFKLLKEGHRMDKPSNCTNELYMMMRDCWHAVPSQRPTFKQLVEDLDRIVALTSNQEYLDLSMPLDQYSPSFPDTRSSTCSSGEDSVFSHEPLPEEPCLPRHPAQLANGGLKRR
Observed: enzyme activity
Mode: inhibitor
The IC50 of CNc1ncc2cc(-c3cc(OC)cc(OC)c3Cl)c(=O)n(CCc3ccc(N(C)C(=O)C(C#N)=CC(C)(C)NC)cc3)c2n1 is reported as 3 nM.
The IC50 of CNc1ncc2cc(-c3cc(OC)cc(OC)c3Cl)c(=O)n(CCc3ccc(N(C)C(=O)C(C#N)=CC(C)(C)N(C)C)cc3)c2n1 is reported as 6 nM.
With CNc1ncc2cc(-c3cc(OC)cc(OC)c3Cl)c(=O)n(CCc3ccc(NC(=O)/C(C#N)=C/C(C)(C)NC)cc3)c2n1 the IC50 was 2.1 nM.
With CNc1ncc2cc(-c3cc(OC)cc(OC)c3Cl)c(=O)n(CCc3ccc(N(C)C(=O)C(C#N)=CC(C)(C)N)cc3)c2n1 the IC50 was 2 nM.
CNc1ncc2cc(-c3cc(OC)cc(OC)c3Cl)c(=O)n(CCc3ccc(NC(=O)C(C#N)=CC(C)(C)N4CCOCC4)cc3)c2n1 has an IC50 of 5.3 nM.

Study 3
SMILES: Cc1ncsc1-c1ccc(C2(NC(=O)C3CC(O)CN3C(=O)C(NC(=O)c3ccc(COc4c(-c5c(C)c(F)cc6[nH]ncc56)c(C5CC5)cc5c(N6CC7CC6CN7)nc(OC6CCOCC6)nc45)cc3)C(C)C)CC2)cc1 (centres unmarked)
Cell line: AsPC-1
Technique: in-cell ELISA
The phospho-ERK1/2 level was 9.11% and 11.9% and 8.98% and 11.5% and 11.7% and 9.87% (1 µM, individual replicates).
300 pM, individual replicates — phospho-ERK1/2 level: 102% and 92.3% and 101% and 106% and 105% and 96.3%.
The phospho-ERK1/2 level was 88.8% and 103% and 98.5% (1 nM, per-experiment values).
For 3 µM, individual replicates: phospho-ERK1/2 level read 5.05% and 7.54% and 7.9% and 9.06% and 8.93% and 5.36%.
10 µM, individual replicates — phospho-ERK1/2 level: 9.76% and 9.34% and 6.75% and 9.11% and 9.69% and 11.3%.
For 3 nM, individual replicates: phospho-ERK1/2 level read 86.4% and 96.2% and 94.3% and 99.4% and 102%.
For 30 nM, individual replicates: phospho-ERK1/2 level read 89.1% and 94.8% and 102% and 86.1% and 89%.
For 100 nM, individual replicates: phospho-ERK1/2 level read 69.8% and 70.3% and 55.5% and 67.5% and 56.9% and 71.9%.

Study 4
Structure (SMILES): CN1C(=O)C(O)(C(=O)O)Oc2cc(F)ccc21 (centres unmarked)
Organism: Arabidopsis thaliana
Strain: Col-0
The hypocotyl length was 1.7 cm and 1.74 cm and 1.65 cm (50 µg/mL, seed germination, single repetition).
For 50 µg/mL, seed germination, repetition mean: hypocotyl length read 1.73 cm.
100 µg/mL, seed germination, repetition mean — hypocotyl length: 1.34 cm.
For 100 µg/mL, seed germination, single repetition: hypocotyl length read 1.32 cm and 1.36 cm and 1.33 cm and 1.35 cm and 1.34 cm.
The hypocotyl length was 1.83 cm (25 µg/mL, seed germination, repetition mean).
The hypocotyl length was 1.97 cm (12.5 µg/mL, seed germination, repetition mean).
It gave 2.1 cm and 2.05 cm and 2.11 cm and 2.06 cm for hypocotyl length (6.25 µg/mL, seed germination, single repetition).
For 6.25 µg/mL, seed germination, repetition mean: hypocotyl length read 2.1 cm.
The hypocotyl length was 1.86 cm and 1.88 cm and 1.8 cm and 1.9 cm and 1.84 cm (25 µg/mL, seed germination, single repetition).

Repeated from above (study 1):
The “log2 fold change” was -1.41 (measured: HAS3 mRNA).
It gave 1.76 for “log2 fold change” (measured: BEX5 mRNA).
The “log2 fold change” was 0.946 (measured: PINX1 mRNA).
It gave -2.33 for “log2 fold change” (measured: CENPI mRNA).
The “log2 fold change” was 0.935 (measured: POR mRNA).
